Measurements of several laboratories.
Compare with care: the assays were run in different laboratories. ± gives the spread as reported.

SMILES	test	system	setting	how to read	quantity	result
Clc1ccc(-c2ccccc2)cc1	–	rat Sprague-Dawley female, serum	inhalation, 35 µg/rat, 24 h	–	serum Sodium	115 ± 5 mmol/L
CCCCCCCCCCCCCCCC(=O)N[C@@H](CCC(=O)NCCCC[C@H](NC(=O)[C@H](CC(=O)O)NC(=O)[C@H](CO)NC(=O)[C@@H](NC(=O)[C@H](Cc1ccccc1)NC(=O)[C@@H](NC(=O)CNC(=O)[C@H](CCC(N)=O)NC(=O)[C@H](CO)NC(=O)[C@@H](N)Cc1c[nH]cn1)[C@@H](C)O)[C@@H](C)O)C(=O)N[C@@H](CO)C(=O)N[C@@H](CCC(=O)O)C(=O)N[C@@H](Cc1ccc(O)cc1)C(=O)N[C@@H](CC(C)C)C(=O)N[C@@H](CC(=O)O)C(=O)N[C@@H](CO)C(=O)N[C@@H](CCC(=O)O)C(=O)N[C@@H](CCCNC(=N)N)C(=O)N[C@@H](C)C(=O)N[C@@H](CCCNC(=N)N)C(=O)N[C@@H](CC(=O)O)C(=O)N[C@@H](Cc1ccccc1)C(=O)N[C@H](C(=O)N[C@@H](C)C(=O)N[C@@H](Cc1c[nH]c2ccccc12)C(=O)N[C@@H](CC(C)C)C(=O)N[C@@H](CCC(=O)O)C(=O)N[C@@H](C)C(=O)NCC(=O)NCC(=O)O)C(C)C)C(=O)O	measured: Vomiting	humans CrCl 45 to 60 mL/min	subcutaneous, 100 µg single dose	–	treatment-related adverse events	42.9%
[O-][S+]1CCc2nc(N3CCC(c4ncc(Cl)cn4)CC3)nc(NC3(CO)CCC3)c21 (centres unmarked)	measured: mean	idiopathic pulmonary fibrosis patients, blood	18 mg twice daily, at last treatment	–	bilirubin	8 µmol/L
COc1cc2c(Oc3ccc4[nH]c(C)cc4c3F)ccnc2cc1OCC1(N)CC1	–	paediatric refractory sarcoma patients	8 mg	–	sinus tachycardia incidence	0%
CCS(=O)(=O)Nc1ccc(Oc2ccc(F)cc2F)c(-c2cn(C)c(=O)c3[nH]ccc23)c1	Pseudomonal sepsis leading to discontinuation	human, relapsed/refractory AML	oral, dose not given	–	treatment-emergent adverse events	0%
CN1CCN(S(=O)(=O)c2cc([N+](=O)[O-])ccc2N(CCOS(C)(=O)=O)CCOS(C)(=O)=O)CC1	–	naive NOD/SCID mice, pooled blood	intraperitoneal, 12.5 mg/kg, week 4	–	calcium	2.6 mmol/L
O=C(O)CCCOc1ccc(F)cc1-c1cc(-c2ccccc2C(F)(F)F)n(-c2ccccc2)n1	–	male Crl:CD(SD) rats, liver	intravenous, 25 µg/kg, 14 d	–	organ weight	11.4 ± 0.62 g
CC(C)[C@@H]1CC[C@@H](C)C[C@@H]1O	acute oral toxicity OECD	Swiss albino mice, serum	oral, 1000 mg/kg	–	direct bilirubin	0.25 ± 0.09 mg/dL
Cn1cncc1-c1c(F)cncc1NC(=O)c1c(N)nn2cc(F)cnc12	–	human patients	oral, 270 mg once daily	–	grade ≥3 lymphocyte decrease incidence	50%
COc1ncccc1-c1cnn2ccc(N3CCN(C(=O)OC(C)C)CC3)nc12	–	rat, CCI mechanical allodynia model, plasma	oral, 10 mg/kg, 240 min	–	free drug concentration	55 nM
C[C@H]1COCCN1c1nc(NCc2cccnc2C(F)(F)F)c2cccnc2n1	–	conscious rat	intravenous, 10 mg/kg	relative to: control	heart rate change	6.5%
Cn1cc(-c2nc(N[C@@H]3CCCC[C@@H]3N)c(F)c3c2C(=O)NC3)cn1	measured: gingival bleeding	patients with relapsed or refractory AML	oral, 120 mg once daily	–	hemorrhagic adverse events	25%
C=CC(=O)Nc1cc(Nc2nccc(Nc3cc(Cl)c(F)cc3C(C)(C)O)n2)c(OC)cc1N1CC[C@@H](N(C)C)C1	–	human patients	oral, 400 mg, treatment-emergent adverse events	–	patients with diarrhoea	85%
NC(=O)c1cccc(-c2cc(OC(=O)NC3CCCCC3)ccc2O)c1	–	mouse	oral, 10 mg/kg	–	apparent clearance	622 mL/min/kg
CC[C@H](C)[C@H](NC(=O)[C@H](Cc1ccccc1)NC(=O)[C@H](CCC(=O)O)NC(=O)[C@H](CCCNC(=N)N)NC(=O)[C@H](C)NC(=O)[C@H](C)NC(=O)[C@H](CCC(N)=O)NC(=O)[C@H](CCC(=O)O)NC(=O)[C@H](CCC(=O)O)NC(=O)[C@H](CC(C)C)NC(=O)[C@H](Cc1ccc(O)cc1)NC(=O)[C@H](CO)NC(=O)[C@H](CO)NC(=O)[C@@H](NC(=O)[C@H](CC(=O)O)NC(=O)[C@H](CO)NC(=O)[C@@H](NC(=O)[C@H](Cc1ccccc1)NC(=O)[C@@H](NC(=O)CNC(=O)[C@H](CCC(=O)O)NC(=O)[C@H](C)NC(=O)CCc1cnc[nH]1)[C@@H](C)O)[C@@H](C)O)C(C)C)C(=O)N[C@@H](C)C(=O)N[C@@H](Cc1c[nH]c2ccccc12)C(=O)N[C@@H](CC(C)C)C(=O)N[C@H](C(=O)N[C@@H](CCCNC(=N)N)C(=O)NCC(=O)N[C@@H](CCCNC(=N)N)C(=O)N[C@@H](CCCCNC(=O)COCCOCCNC(=O)COCCOCCNC(=O)CC[C@H](NC(=O)CCCCCCCCCCCCCCCCC(=O)O)C(=O)O)C(=O)NCC(=O)NCC(=O)N[C@@H](CO)C(=O)N[C@@H](CCSC)C(=O)N[C@H](C(=O)N[C@@H](CCCCNc1c(NCCCCCN(O)C(=O)CCC(=O)NCCCCCN(O)C(=O)CCC(=O)NCCCCCN(O)C(C)=O)c(=O)c1=O)C(=O)O)C(C)C)C(C)C [zirconium-89 labelled]	ex vivo gamma counting	male Sprague-Dawley rats, kidney	intravenous, 1 nmol, 24 h, mean of 3 animals	–	tissue uptake	4.79 ± 0.11 %ID/g
[2H]C([2H])([18F])[C@]([2H])(N)C(=O)O	PET	athymic nude mice, U-87 MG, muscle	dose not given, 30 min post-injection	–	tissue uptake	1.47 ± 0.25 %ID/cc
CCc1ccc(CC/C=C/c2ccc3c(c2)C(=O)CC3)cc1	–	Sprague-Dawley rat, female	oral, 120 mg/kg/day, 14 days	–	ALP serum activity	92 U/L
O=S(=O)(Nc1ccccc1)c1ccc(NC(=S)Nc2ccccc2)cc1	measured: AST	female mouse, blood	oral, 5 mg/kg daily, 14 days	–	serum enzyme activity	587 U/L

SMILES	test	system	setting	how to read	quantity	result
O=C1O[C@H]2[C@@H]3OC(=O)c4cc(O)c(O)c(O)c4-c4c(O)c(O)c5oc(=O)c6c(c(O)c(O)c7oc(=O)c4c5c76)-c4c(cc(O)c(O)c4O)C(=O)OC[C@H]3OC(O)[C@@H]2OC(=O)c2cc(O)c(O)c(O)c2-c2c1cc(O)c(O)c2O (mixture of isomers)	subacute oral toxicity	BALB/c mice	oral, 1000 mg/kg/day, 28 days	–	spleen weight	0.079 g
O=S(=O)([O-])C(F)(F)C(F)(F)C(F)(F)C(F)(F)C(F)(F)C(F)(F)C(F)(F)C(F)(F)F.[K+]	measured: GSH, lipid peroxidation	male C57BL/6J mice, liver	concentration not given, alone or with EtOH	–	oxidative stress markers	no effect
CCCCCOc1ccc(-c2ccc(-c3ccc(C(=O)N[C@H]4C[C@@H](O)[C@@H](OCC[N+](C)(C)C)NC(=O)[C@@H]5[C@@H](O)[C@@H](C)CN5C(=O)[C@H]([C@@H](C)O)NC(=O)[C@H]([C@H](O)[C@@H](O)c5ccc(O)cc5)NC(=O)[C@@H]5C[C@@H](O)CN5C(=O)[C@H]([C@@H](C)O)NC4=O)cc3)cc2)cc1	–	adult ICU patients, mITT, serum	dose not given, Baseline	–	aspartate aminotransferase	28.2 U/L
CC(=O)c1c(C)c2cnc(Nc3ccc(C4CCN(CCS(C)(=O)=O)CC4)cn3)nc2n(C2CCCC2)c1=O	–	HR+/HER2- advanced breast cancer patients	oral, 100 mg bid, all grades, monotherapy arm	–	patients with anaemia	40%
CC(C)CC(=O)OC[C@H]1O[C@@](C#N)(c2ccc3c(N)ncnn23)[C@H](O)[C@@H]1O	plasma protein binding	monkey plasma	0.9 µM, time not given	–	recovery	100%
N[C@@H]1c2ccccc2OC12CCN(c1cnc3c(N4CCCc5ncccc54)n[nH]c3n1)CC2	–	advanced solid tumour patients	oral, 40 mg once daily	–	TEAE causing dose reduction	0%
C[C@]12CC[C@H](n3ccnc3)CC1=CC[C@@H]1[C@@H]2CC[C@]2(C)C(n3cnc4ccccc43)=CC[C@@H]12.Cl	–	CD-1 mice, male, plasma	oral, 10 mg/kg	relative to: intravenous 1 mg/kg	oral bioavailability	131%
Nc1nc2cc(-c3ccc4ncc(C(=O)N5CCOCC5)n4c3)ccc2o1	measured: Hyperglycemia	advanced solid tumour patients	dose not given	–	patients with adverse event	8%
O=C(Nc1ccccc1)C1CCN(C(=O)Oc2cccnc2)CC1	–	healthy women	oral, 60 mg, 7 days	–	adverse event Lethargy	28.6%
C[C@]1(CO)Cc2ncn(-c3ccc(C#N)c(Cl)c3)c2C(=O)O1	–	human, plasma	20 mg single dose, geometric mean	–	Cmax	679 nM
O=C(Nc1ccc2c(c1)B(O)OC2)c1cccc(OCc2c(Cl)cccc2Cl)c1	PAMPA	pre-coated trilayer membrane	200 µM, 5 h, pH 7.4, donor plate, PBS	–	donor concentration	177 ± 11.7 µM
C[C@@H](NC(=O)N1C(=O)[C@H](Cc2ccnc(N)c2)[C@H]1C(=O)O)C1CCCCC1	–	healthy adult Chinese volunteers	continuous intravenous infusion, 2.25 mg/kg/h, 5-day infusion, CTCAE 5.0 grading	–	incidence of decreased neutrophil	0%
COc1ccc2nc3cc(Cl)ccc3c(Nc3cc(CN4CCCC4)c(O)c(CN4CCCC4)c3)c2n1	–	mouse, blood	intraperitoneal, 28 mg/kg	–	mean corpuscular haemoglobin	16.8 pg
CO[C@H]1C[C@@H]2CC[C@@H](C)[C@@](O)(O2)C(=O)C(=O)N2CCCC[C@H]2C(=O)O[C@H]([C@H](C)C[C@@H]2CC[C@@H](OC(=O)NCCOCCOCCOCCOCCOCCOCCOCCOCCC(=O)N3CCc4cc(Cn5nc(-c6ccc7oc(N)nc7c6)c6c(N)ncnc65)ccc4C3)[C@H](OC)C2)C[C@@H](O)[C@H](C)/C=C(\C)[C@@H](O)[C@@H](OC)C(=O)[C@H](C)C[C@H](C)/C=C/C=C/C=C/1C	phase 1 dose escalation, measured: fatigue	advanced solid tumour patients	intravenous, 6 mg weekly, any grade	–	TRAE incidence	41.7%
O=C1Nc2cc3[nH]nc(-c4ccncc4)c3cc2CN1Cc1ccccc1	CTCAE v4.03	human, relapsed or refractory advanced solid tumours	intravenous, 0.9 mg/kg, pooled schedules	–	patients with nausea	0%
CC(C)C[C@H](NC(=O)[C@H](CCCCN)NC(=O)OCC1c2ccccc2-c2ccccc21)C(=O)N[C@H](C(=O)N[C@@H](Cc1ccccc1)C(=O)N[C@@H](Cc1ccccc1)C(=O)N[C@@H](CCCCN)C(=O)NCC(=O)N[C@@H](Cc1ccccc1)C(=O)N[C@@H](C)C(=O)N[C@@H](Cc1c[nH]c2ccccc12)C(=O)N[C@@H](CC(N)=O)C(=O)N[C@H](C(=O)N[C@H]1CSSC[C@@H](C(=O)N[C@@H](Cc2c[nH]cn2)C(=O)N[C@@H](CCCNC(=N)N)C(=O)N[C@@H](CCCNC(=N)N)C(=O)N[C@@H](C)C(=O)N[C@@H](CC(N)=O)C(N)=O)NC(=O)[C@H](C(C)C)NC(=O)[C@H](CCCNC(=N)N)NC(=O)[C@H](C(C)C)NC(=O)CNC(=O)[C@H](CC(N)=O)NC(=O)[C@H](CCCNC(=N)N)NC(=O)[C@H](Cc2ccc(O)cc2)NC(=O)[C@H](C(C)C)NC1=O)C(C)C)C(C)C	–	ICR mice, blood	intraductal mammary, 10 mg/kg, day 5	–	plateletcrit	0.03 ± 0.01%
Cn1ncc(-c2nc(N[C@H]3CC[C@H](N)CC3)ncc2Cl)c1CC1CC1	phase I dose escalation	human patients	dose not given, any-grade TEAE	–	pyrexia incidence	33%
